Measured values from different studies.
Lines come from different studies, so protocols differ.

SMILES | organism | assay | system | setting | MIC
CC1C(=NOCc2cc(-c3ccc(Cl)cc3)no2)C(C)C(c2ccc(Cl)cc2)OC1c1ccc(Cl)cc1 (stereo not drawn) | Aspergillus niger | microbial growth |  |  | 25 µg/mL
CC[C@H](C)[C@@H]1NC(=O)CNC(=O)[C@H](CCCCN)NC(=O)[C@H](C)NC(=O)[C@H](CCC(=O)O)NC(=O)[C@H](Cc2ccccc2)NC(=O)[C@H](CO)NC(=O)[C@H](CC(C)C)NC(=O)[C@H](C(C)C)NC(=O)[C@H](CC(=O)O)NC(=O)[C@@H](NC(=O)[C@@H](NC(=O)[C@@H](N)C(C)C)[C@@H](C)O)CSSC[C@@H]2NC(=O)[C@H](CO)NC(=O)CNC(=O)CNC(=O)[C@H](CCCCN)NC(=O)[C@H](CCCCN)NC(=O)[C@H](CCCNC(=N)N)NC(=O)[C@H](CC(C)C)NC(=O)[C@H](C)NC(=O)[C@H]([C@@H](C)CC)NC(=O)[C@H](CSSC[C@@H](C(=O)N[C@@H](CCCNC(=N)N)C(=O)N[C@@H](CC(N)=O)C(=O)O)NC(=O)[C@H](C(C)C)NC(=O)[C@H](C)NC(=O)[C@H](C(C)C)NC(=O)CNC(=O)[C@H](CC(N)=O)NC(=O)[C@H](CCC(N)=O)NC2=O)NC(=O)[C@H](Cc2c[nH]cn2)NC(=O)[C@H](CC(C)C)NC(=O)[C@H](C)NC(=O)[C@H](C)NC(=O)[C@H](C)NC(=O)[C@H](CO)NC(=O)[C@H](Cc2c[nH]cn2)NC(=O)[C@H](CC(N)=O)NC(=O)[C@H](C(C)C)NC(=O)[C@H](C)NC1=O | Candida parapsilosis | broth microdilution | ATCC 22019 | 28 °C | 12.5 to 25 µM
OB(O)c1ccc(OCc2ccccc2)nc1F | Klebsiella aerogenes | bacterial growth | AmpC-overproducing clinical isolate | cefotaxime alone | 8 µg/mL
O=[N+]([O-])c1ccc(C2=[N+]([O-])c3ccccc3N3CCCN=C23)cc1 | Finegoldia magna |  |  |  | 1 µg/mL
CC(C)C[C@H](NC(=O)[C@H](CCCNC(=N)N)NC(=O)[C@H](CCC(N)=O)NC(=O)[C@H](Cc1c[nH]cn1)NC(=O)[C@@H](NC(=O)[C@H](CCCCN)NC(=O)[C@H](CC(C)C)NC(=O)[C@H](CCC(=O)O)NC(=O)[C@H](CO)NC(=O)[C@H](CCCNC(=N)N)NC(=O)[C@@H](N)CO)C(C)C)C(=O)N[C@@H](Cc1ccccc1)C(N)=O | Candida parapsilosis | broth microdilution | RPMI MOPS-buffered |  | > 400 µg/mL
[O-][N+]1=C(Cc2ccccc2)C2=NCCCN2c2ccccc21 | Porphyromonas asaccharolytica |  |  |  | 2 µg/mL
CC[C@H](C)[C@@H]1NC(=O)[C@H](CC(C)C)NC(=O)[C@@H](NC(=O)[C@H](CO)NC(=O)[C@H](CCCNC(=N)N)NC(=O)[C@@H](N)CO)CSSC[C@@H](C(=O)N[C@@H](CCC(N)=O)C(=O)N[C@@H](CCCNC(=N)N)C(=O)N[C@@H](CC(C)C)C(=O)N[C@@H](Cc2ccccc2)C(N)=O)NC(=O)[C@H](C(C)C)NC1=O | Candida parapsilosis | broth microdilution | ATCC 22019 |  | 14 µg/mL
c1ccc(CCNC2CCCc3c2[nH]c2ccc(C4CCCCC4)cc32)cc1 (stereo not drawn) | Staphylococcus aureus | broth microdilution | SA113, cation-adjusted MHB |  | 4 µg/mL
CC[C@H](C)[C@H](NC(=O)[C@H](CCCCN)NC(=O)[C@H](CCCNC(=N)N)NC(=O)[C@H](Cc1c[nH]c2ccccc12)NC(=O)[C@@H](NC(=O)[C@H](CC(N)=O)NC(=O)[C@H](CCCNC(=N)N)NC(=O)[C@@H](NC(=O)[C@H](CCCNC(=N)N)NC(=O)[C@H](CC(N)=O)NC(=O)[C@H](CCCNC(=N)N)NC(=O)[C@H](CC(C)C)NC(=O)[C@H](CCCNC(=N)N)NC(=O)[C@H](CCCNC(=N)N)NC(=O)[C@H](Cc1ccccc1)NC(=O)[C@H](CCCNC(=N)N)NC(=O)CN)[C@@H](C)CC)[C@@H](C)CC)C(=O)NCC(=O)N1CCC[C@H]1C(=O)N[C@H](C(=O)N[C@@H](C)C(=O)NCC(=O)N1CCC[C@H]1C(=O)N[C@@H](CC(C)C)C(=O)N[C@H](C(=O)N[C@@H](CO)C(=O)N[C@@H](CCCNC(=N)N)C(=O)N[C@@H](Cc1ccccc1)C(=O)NCC(=O)O)[C@@H](C)CC)[C@@H](C)CC | gram-negative bacteria | agar dilution | clinical isolates | summary range | 8 to 32 µg/mL
S=C(NCc1ccccn1)NCc1ccccn1 | Agrobacterium tumefaciens |  |  |  | 4.04 µg/mL
[O-][N+]1=C(c2ccsc2)C2=NCCCN2c2ccccc21 | Porphyromonas asaccharolytica |  |  |  | 0.125 µg/mL
CC(=O)OC1C(C)C(OC2CC3OCOC3C(C)O2)C=COC2(C)Oc3c(C)c(O)c4c(c3C2=O)C(=O)C=C(NC(=O)C(C)=CC=CC(C(C)OC(=O)C(C)(C)CC(=O)O)C(O)C(C)C(O)C1C)C4=O (stereo not drawn) | Enterococcus |  |  |  | 64 to 128 µg/mL
CC[C@H](C)[C@H](NC(=O)[C@@H](NC(=O)CN)C(C)C)C(=O)N[C@@H](Cc1ccccc1)C(=O)N[C@@H](CC(N)=O)C(=O)N[C@@H](C)C(=O)N[C@@H](CC(C)C)C(=O)N[C@@H](CCCCN)C(=O)NCC(=O)N[C@H](C(=O)N[C@@H](C)C(=O)N[C@@H](CCCCN)C(=O)N[C@H](C(=O)N[C@H](C(=O)N[C@@H](C)C(=O)N[C@@H](C)C(=O)N[C@@H](CCC(N)=O)C(=O)N[C@@H](CC(C)C)C(=O)N[C@@H](CC(C)C)C(=O)N[C@@H](CCCCN)C(=O)N[C@@H](CCCCN)C(=O)N[C@@H](C)C(=O)N[C@@H](CCCNC(=N)N)C(=O)N[C@H]1CSSC[C@@H](C(=O)O)NC(=O)[C@H](CO)NC(=O)[C@H](CCCCN)NC(=O)[C@H](CC(=O)O)NC(=O)[C@H](CC(C)C)NC(=O)[C@H](CCCCN)NC1=O)C(C)C)[C@@H](C)O)C(C)C | Staphylococcus aureus |  | methicillin-resistant NCTC 12493 | Mueller-Hinton broth | 2 µM
C[N+]1=C2C(c3ccc([N+](=O)[O-])cc3)=[N+]([O-])c3ccccc3N2CCC1 | Bacteroides fragilis | microbial growth | ATCC25285 |  | 1 µg/mL
CC1C(=NOCc2cc(-c3ccc(Cl)cc3)no2)C(C)C(c2ccc(Br)cc2)OC1c1ccc(Br)cc1 (stereo not drawn) | Aspergillus niger | microbial growth |  |  | 50 µg/mL
CO[C@H]1/C=C/O[C@@]2(C)Oc3c(C)c(O)c4c(c3C2=O)C2=NC3(CCN(CC(C)C)CC3)NC2=C(NC(=O)/C(C)=C\C=C\[C@H](C)[C@H](O)[C@@H](C)[C@@H](O)[C@@H](C)[C@H](OC(C)=O)[C@@H]1C)C4=O | Mycobacteroides abscessus |  | ATCC 19977 arr knockout |  | 0.04 µM
CC[C@H](C)[C@H](NC(=O)CNC(=O)[C@H](CCCCN)NC(=O)[C@H](C)NC(=O)[C@H](CCC(=O)O)NC(=O)[C@H](Cc1ccccc1)NC(=O)[C@H](CO)NC(=O)[C@H](CC(C)C)NC(=O)[C@@H](NC(=O)[C@H](CC(=O)O)NC(=O)[C@H](C)NC(=O)[C@@H](NC(=O)[C@@H](N)C(C)C)[C@@H](C)O)C(C)C)C(=O)N[C@@H](C)C(=O)N[C@H](C(=O)N[C@@H](CC(N)=O)C(=O)N[C@@H](Cc1c[nH]cn1)C(=O)N[C@@H](CO)C(=O)N[C@@H](C)C(=O)N[C@H]1CSSC[C@@H]2NC(=O)[C@H](C(C)C)NC(=O)CNC(=O)[C@H](CC(N)=O)NC(=O)[C@H](CCC(N)=O)NC(=O)[C@H](C)NC(=O)[C@H](CO)NC(=O)CNC(=O)CNC(=O)[C@H](CCCCN)NC(=O)[C@H](CCCCN)NC(=O)[C@H](CCCNC(=N)N)NC(=O)[C@H](CC(C)C)NC(=O)[C@H](C)NC(=O)[C@H]([C@@H](C)CC)NC(=O)[C@H](CSSC[C@@H](C(=O)N[C@@H](CCCNC(=N)N)C(=O)N[C@@H](CC(N)=O)C(=O)O)NC(=O)[C@H](C(C)C)NC2=O)NC(=O)[C@H](Cc2c[nH]cn2)NC(=O)[C@H](CC(C)C)NC(=O)[C@H](C)NC1=O)C(C)C | Candida parapsilosis | broth microdilution | ATCC 22019 | 28 °C | 12.5 µM
O=C(NCc1nc(-c2ccc(Br)cc2)c[nH]1)Nc1ncc(Sc2ccccn2)s1 | Bacteroides fragilis | broth microdilution | ATCC 25285 | with: verapamil 50 µg/mL | > 128 µM
CC[C@H](C)[C@H](NC(=O)[C@H](CC(C)C)NC(=O)[C@H](C)NC(=O)[C@H](CO)NC(=O)[C@H](CCCNC(=N)N)NC(=O)[C@@H](N)CO)C(=O)N[C@H](C(=O)N[C@@H](Cc1c[nH]cn1)C(=O)N[C@@H](CCC(N)=O)C(=O)N[C@@H](CCCNC(=N)N)C(=O)N[C@@H](CC(C)C)C(=O)N[C@@H](Cc1ccccc1)C(N)=O)C(C)C | Candida parapsilosis | broth microdilution | RPMI MOPS-buffered |  | > 400 µg/mL
[O-][N+]1=C(c2ccc(Cl)cc2)C2=NCCCN2c2ccccc21 | Porphyromonas gingivalis | microbial growth | ATCC33277 |  | 0.125 µg/mL
CCCCCCCCCCCCCC[S+]([O-])CC1OC(OC2C(N)CC(N)C(OC3OC(CN)C(O)CC3N)C2O)C(O)C(N)C1O (mixture of isomers) | Enterococcus |  | vancomycin-resistant |  | 37.5 µg/mL
C[N+]1=C2C(c3ccc(Cl)cc3)=[N+]([O-])c3ccccc3N2CCC1 | Porphyromonas asaccharolytica |  |  |  | 4 µg/mL
CCCCc1ccc(-c2nc(C)c(C(C)=NNC(=N)N)s2)cc1 | Staphylococcus aureus |  | NRS107 MRSA |  | 2.6 µg/mL
COc1ccc(C2=[N+]([O-])c3ccccc3N3CCCN=C23)cc1 | Finegoldia magna |  |  |  | 1 µg/mL
CC[C@H](C)[C@@H]1NC(=O)CNC(=O)[C@H](CCCCN)NC(=O)[C@H](C)NC(=O)[C@H](CCC(=O)O)NC(=O)[C@H](Cc2ccccc2)NC(=O)[C@H](CO)NC(=O)[C@H](CC(C)C)NC(=O)[C@H](C(C)C)NC(=O)[C@H](CC(=O)O)NC(=O)[C@@H](NC(=O)[C@@H](NC(=O)[C@@H](N)C(C)C)[C@@H](C)O)CSSC[C@@H]2NC(=O)[C@H](CO)NC(=O)CNC(=O)CNC(=O)[C@H](CCCCN)NC(=O)[C@H](CCCCN)NC(=O)[C@H](CCCNC(=N)N)NC(=O)[C@H](CC(C)C)NC(=O)[C@H](C)NC(=O)[C@H]([C@@H](C)CC)NC(=O)[C@H](C)NC(=O)[C@H](Cc3c[nH]cn3)NC(=O)[C@H](CC(C)C)NC(=O)[C@H](C)NC(=O)[C@H](CSSC[C@@H](C(=O)N[C@H](C(=O)N[C@@H](C)C(=O)N[C@@H](CCCNC(=N)N)C(=O)N[C@@H](CC(N)=O)C(=O)O)C(C)C)NC(=O)[C@H](C(C)C)NC(=O)CNC(=O)[C@H](CC(N)=O)NC(=O)[C@H](CCC(N)=O)NC2=O)NC(=O)[C@H](C)NC(=O)[C@H](CO)NC(=O)[C@H](Cc2c[nH]cn2)NC(=O)[C@H](CC(N)=O)NC(=O)[C@H](C(C)C)NC(=O)[C@H](C)NC1=O | Candida parapsilosis | broth microdilution | ATCC 22019 | 28 °C | 12.5 µM
[O-][N+]1=C(c2ccccc2)C2=NCCCN2c2ncccc21 | Porphyromonas asaccharolytica |  |  |  | ≤ 0.06 µg/mL
CC[C@H](C)[C@H](NC(=O)[C@H](Cc1c[nH]c2ccccc12)NC(=O)[C@H](CCCNC(=N)N)NC(=O)[C@H](CCC(N)=O)NC(=O)[C@@H](NC(=O)[C@H](Cc1c[nH]c2ccccc12)NC(=O)[C@H](CCCNC(=N)N)NC(=O)[C@H](CCCNC(=N)N)NC(=O)[C@H](C)NC(=O)[C@H](C)NC(=O)[C@H](C)NC(=O)[C@@H](NC(=O)[C@H](CCCCN)NC(=O)[C@@H]1CCCN1C(=O)[C@H](CCCNC(=N)N)NC(=O)[C@H](Cc1c[nH]c2ccccc12)NC(=O)[C@H](CCCNC(=N)N)NC(=O)[C@H](CCCNC(=N)N)NC(=O)[C@@H](NC(=O)[C@H](Cc1c[nH]c2ccccc12)NC(=O)[C@H](CCCNC(=N)N)NC(=O)[C@H](CCC(N)=O)NC(=O)[C@@H](NC(=O)[C@H](Cc1c[nH]c2ccccc12)NC(=O)[C@H](CCCNC(=N)N)NC(=O)[C@@H](N)CCCNC(=N)N)C(C)C)[C@@H](C)CC)C(C)C)C(C)C)C(=O)N[C@@H](CCCNC(=N)N)C(=O)N[C@@H](CCCNC(=N)N)C(=O)N[C@@H](Cc1c[nH]c2ccccc12)C(=O)N[C@@H](CCCNC(=N)N)C(=O)N1CCC[C@H]1C(=O)N[C@@H](CCCCN)C(=O)N[C@H](C(N)=O)C(C)C | Aspergillus fumigatus | metabolic activity, resazurin | azole-resistant | 27 h, 37 °C | 1 µM
